Experimental data gathered from unrelated publications.
B1: fbf-2 121-632 I480A (Caenorhabditis elegans, UniProt Q09312); sequence looked up; chain DFSQNVRCFSADIDRSKSYGSSKHYHLKYSRPALSRNSRSFTRSNNVLPTWSLDSNGEMRSRLSLSEVLDSGDLMKFAVDKTGCQFLEKAVKGSLTSYQKFQLFEQVIGRKDDFLKLSTNIFGNYLVQSVIGISLATNDDGYTKRQEKLKNFISSQMTDMCLDKFACRVIQSSLQNMDLSLACKLVQALPRDARLIAICVDQNANHVIQKVVAVIPLKNWEFIVDFVATPEHLRQICSDKYGCRVVQTIIEKLTADSMNVDLTSAAQNLRERALQRLMTSVTNRCQELATNEYANYIIQHIVSNDDLAVYRECIIEKCLMRNLLSLSQEKFASHVVEKAFLHAPLELLAEMMDEIFDGYAPHPDTGKDALDIMMFHQFGNYVVQCMLTICCDAVSGRRQTKEGGYDHAISFQDWLKKLHSRVTKERHRLSRFSSGKKMIETLANLRSTHPIYELQSSGHDSFKTDYFSTASEHDGPELEKNGIEEGSLMLEPRSNKSSVSVKFSSSGSHGDD
B2: CCL14 28-93 (UniProt Q16627-1); sequence looked up; chain GPYHPSECCFTYTTYKIPRQRIMDYYETNSQCSKPGIVFITKRGHSVCTNPSDKWVQDYIKDMKEN
B3: PduA 2-94 (Salmonella enterica, UniProt P0A1C7); chain QQEALGMVETKGLTAAIEAADAMVKSANVMLVGYEKIGSGLVTVIVRGDVGAVKAATDAGAAAARNVGEVKAVHVIPRPHTDVEKILPKGISQ
UniProt Q9NPG2, sequence (whole entry, looked up): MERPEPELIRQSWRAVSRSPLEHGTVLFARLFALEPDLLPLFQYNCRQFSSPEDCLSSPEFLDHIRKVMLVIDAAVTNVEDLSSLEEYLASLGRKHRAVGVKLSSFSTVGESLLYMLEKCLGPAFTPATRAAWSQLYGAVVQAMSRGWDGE
UniProt Q14980, sequence (whole entry, looked up): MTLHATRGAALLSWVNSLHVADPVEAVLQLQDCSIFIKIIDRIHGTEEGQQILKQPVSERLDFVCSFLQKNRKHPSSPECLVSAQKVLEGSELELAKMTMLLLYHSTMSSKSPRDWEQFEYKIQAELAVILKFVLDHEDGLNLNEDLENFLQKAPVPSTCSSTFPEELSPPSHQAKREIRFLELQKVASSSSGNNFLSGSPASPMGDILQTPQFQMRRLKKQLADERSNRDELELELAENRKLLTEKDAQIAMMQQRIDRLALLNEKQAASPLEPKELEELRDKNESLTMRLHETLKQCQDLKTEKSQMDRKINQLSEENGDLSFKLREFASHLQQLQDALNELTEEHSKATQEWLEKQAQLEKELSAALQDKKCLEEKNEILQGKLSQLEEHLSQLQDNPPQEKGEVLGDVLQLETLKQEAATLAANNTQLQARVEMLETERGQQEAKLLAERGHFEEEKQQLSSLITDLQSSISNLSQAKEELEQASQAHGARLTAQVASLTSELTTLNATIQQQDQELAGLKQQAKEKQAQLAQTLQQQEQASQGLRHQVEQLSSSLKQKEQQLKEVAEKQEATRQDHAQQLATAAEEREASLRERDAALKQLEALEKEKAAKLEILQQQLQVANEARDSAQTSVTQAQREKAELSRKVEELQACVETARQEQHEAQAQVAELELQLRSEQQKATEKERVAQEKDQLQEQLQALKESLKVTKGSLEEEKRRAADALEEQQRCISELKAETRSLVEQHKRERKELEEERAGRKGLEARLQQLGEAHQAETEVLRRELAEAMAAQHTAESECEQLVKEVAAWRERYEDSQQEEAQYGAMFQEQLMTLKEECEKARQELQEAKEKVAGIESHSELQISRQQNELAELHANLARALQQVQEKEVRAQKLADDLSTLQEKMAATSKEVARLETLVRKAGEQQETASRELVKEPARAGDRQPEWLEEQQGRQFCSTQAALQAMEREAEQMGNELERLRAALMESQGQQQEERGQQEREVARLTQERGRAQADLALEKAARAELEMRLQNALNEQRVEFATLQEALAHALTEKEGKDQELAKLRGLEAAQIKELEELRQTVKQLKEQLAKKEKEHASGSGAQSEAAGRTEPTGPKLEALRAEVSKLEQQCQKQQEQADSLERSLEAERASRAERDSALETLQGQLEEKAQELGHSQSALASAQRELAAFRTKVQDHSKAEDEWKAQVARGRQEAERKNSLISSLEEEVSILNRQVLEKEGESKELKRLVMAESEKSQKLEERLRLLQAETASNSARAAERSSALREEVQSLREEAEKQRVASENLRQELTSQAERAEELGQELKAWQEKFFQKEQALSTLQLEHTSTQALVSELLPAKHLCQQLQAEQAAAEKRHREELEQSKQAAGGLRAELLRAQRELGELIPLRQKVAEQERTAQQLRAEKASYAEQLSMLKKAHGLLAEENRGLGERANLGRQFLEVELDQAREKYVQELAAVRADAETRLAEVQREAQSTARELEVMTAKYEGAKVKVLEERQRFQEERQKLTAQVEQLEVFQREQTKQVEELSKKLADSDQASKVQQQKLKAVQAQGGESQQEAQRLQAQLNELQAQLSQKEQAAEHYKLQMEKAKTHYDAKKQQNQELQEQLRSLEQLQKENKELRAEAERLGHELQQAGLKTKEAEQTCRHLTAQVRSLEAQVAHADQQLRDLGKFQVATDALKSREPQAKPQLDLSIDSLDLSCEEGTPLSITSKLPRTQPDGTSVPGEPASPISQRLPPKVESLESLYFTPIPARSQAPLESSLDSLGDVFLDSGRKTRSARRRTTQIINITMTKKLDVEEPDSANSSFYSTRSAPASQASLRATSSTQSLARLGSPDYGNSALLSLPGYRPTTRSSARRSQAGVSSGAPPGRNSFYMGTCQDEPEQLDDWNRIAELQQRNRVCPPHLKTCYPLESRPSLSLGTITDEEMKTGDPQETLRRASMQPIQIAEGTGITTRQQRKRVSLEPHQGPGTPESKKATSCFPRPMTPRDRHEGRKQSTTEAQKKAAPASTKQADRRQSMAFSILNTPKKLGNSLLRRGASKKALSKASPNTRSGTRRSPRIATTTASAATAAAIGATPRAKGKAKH
UniProt P08637, sequence (whole entry, looked up): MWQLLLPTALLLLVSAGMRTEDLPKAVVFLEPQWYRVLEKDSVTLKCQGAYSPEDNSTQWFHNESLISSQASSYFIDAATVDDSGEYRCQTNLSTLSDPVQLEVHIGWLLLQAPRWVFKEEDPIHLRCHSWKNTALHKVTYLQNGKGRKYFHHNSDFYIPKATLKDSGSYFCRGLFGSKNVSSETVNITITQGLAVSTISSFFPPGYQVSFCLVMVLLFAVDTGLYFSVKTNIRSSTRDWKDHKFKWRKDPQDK
UniProt Q95ZK7, sequence (whole entry, looked up): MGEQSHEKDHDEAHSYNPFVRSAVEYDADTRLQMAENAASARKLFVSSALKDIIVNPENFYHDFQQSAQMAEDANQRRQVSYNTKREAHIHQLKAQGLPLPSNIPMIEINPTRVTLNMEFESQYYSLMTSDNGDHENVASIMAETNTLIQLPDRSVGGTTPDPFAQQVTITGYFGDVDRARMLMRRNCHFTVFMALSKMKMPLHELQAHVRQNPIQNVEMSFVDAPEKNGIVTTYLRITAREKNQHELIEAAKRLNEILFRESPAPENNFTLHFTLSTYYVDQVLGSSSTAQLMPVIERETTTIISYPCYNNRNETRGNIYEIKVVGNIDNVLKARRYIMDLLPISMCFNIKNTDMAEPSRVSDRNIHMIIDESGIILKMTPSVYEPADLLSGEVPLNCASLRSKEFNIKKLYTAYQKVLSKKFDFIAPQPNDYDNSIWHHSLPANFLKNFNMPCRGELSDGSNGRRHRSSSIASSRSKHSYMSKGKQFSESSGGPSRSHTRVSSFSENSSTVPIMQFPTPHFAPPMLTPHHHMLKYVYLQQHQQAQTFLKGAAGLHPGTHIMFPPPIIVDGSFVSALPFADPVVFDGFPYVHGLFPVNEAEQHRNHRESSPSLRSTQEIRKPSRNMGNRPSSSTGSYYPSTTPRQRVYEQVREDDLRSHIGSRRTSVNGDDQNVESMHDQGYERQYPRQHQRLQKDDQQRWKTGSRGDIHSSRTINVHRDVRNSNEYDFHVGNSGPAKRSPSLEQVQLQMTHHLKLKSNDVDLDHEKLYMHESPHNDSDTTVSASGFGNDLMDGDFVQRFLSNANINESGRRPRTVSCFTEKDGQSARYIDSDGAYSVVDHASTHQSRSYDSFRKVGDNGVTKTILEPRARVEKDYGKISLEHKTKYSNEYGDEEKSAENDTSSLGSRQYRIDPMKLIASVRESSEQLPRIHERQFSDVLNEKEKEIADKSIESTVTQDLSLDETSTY
UniProt P32246, sequence (whole entry, looked up): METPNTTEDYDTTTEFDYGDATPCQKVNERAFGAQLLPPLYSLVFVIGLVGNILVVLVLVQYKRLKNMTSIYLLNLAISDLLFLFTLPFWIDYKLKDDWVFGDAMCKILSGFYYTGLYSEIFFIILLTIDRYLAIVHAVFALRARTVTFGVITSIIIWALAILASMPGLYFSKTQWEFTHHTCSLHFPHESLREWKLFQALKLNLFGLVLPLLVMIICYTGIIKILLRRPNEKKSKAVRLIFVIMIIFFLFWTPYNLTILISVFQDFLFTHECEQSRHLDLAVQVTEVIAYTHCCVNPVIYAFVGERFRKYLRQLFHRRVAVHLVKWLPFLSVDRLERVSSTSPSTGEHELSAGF
UniProt Q7L1T6, sequence (whole entry, looked up): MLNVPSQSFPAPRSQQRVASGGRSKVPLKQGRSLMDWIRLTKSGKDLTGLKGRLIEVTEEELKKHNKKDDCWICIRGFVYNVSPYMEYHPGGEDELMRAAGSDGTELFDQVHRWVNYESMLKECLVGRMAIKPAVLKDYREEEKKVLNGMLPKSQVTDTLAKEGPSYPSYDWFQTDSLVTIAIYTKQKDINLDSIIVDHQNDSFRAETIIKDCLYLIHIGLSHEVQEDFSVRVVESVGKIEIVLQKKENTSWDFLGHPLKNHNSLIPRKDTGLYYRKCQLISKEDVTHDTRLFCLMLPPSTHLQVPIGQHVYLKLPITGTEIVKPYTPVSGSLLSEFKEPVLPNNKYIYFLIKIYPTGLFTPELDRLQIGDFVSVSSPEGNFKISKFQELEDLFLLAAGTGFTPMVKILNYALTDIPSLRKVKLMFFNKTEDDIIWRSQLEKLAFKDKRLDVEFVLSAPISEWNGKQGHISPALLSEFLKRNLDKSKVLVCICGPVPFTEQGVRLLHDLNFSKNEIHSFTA
UniProt Q9XDN6, sequence (whole entry, looked up): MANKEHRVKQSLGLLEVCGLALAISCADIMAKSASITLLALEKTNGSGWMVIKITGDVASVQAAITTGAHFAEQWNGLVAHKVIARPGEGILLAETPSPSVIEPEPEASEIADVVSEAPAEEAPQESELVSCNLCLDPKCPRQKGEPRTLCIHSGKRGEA

Substance | tested on | assay | system | setting | scale | quantity | result
GSGAGSETKM | human SCRIB PDZ3-4 tandem (MBP fusion) | automated holdup | peptide, purified PDZ protein | concentration not given, unit not given | baseline: biotin control resin, higher = stronger binding | binding intensity | -0.0477
colistin | Klebsiella pneumoniae | broth microdilution | clinical isolate RKI-No_908/15 | – | – | MIC | 32 µg/mL
GSGAGIESNV | human SCRIB PDZ3-4 tandem (MBP fusion) | surface plasmon resonance | peptide | concentration not given | higher = stronger binding | normalised SPR binding response | 88.4 normalised RU
trastuzumab-MMAE ADC IgG1 | FCGR3A (Homo sapiens, UniProt P08637) | BLI | – | ADC | baseline: unconjugated Trastuzumab, higher = weaker binding | KD fold increase | 2 fold
FGG (Homo sapiens, UniProt P02679) | ATP2B3 (Homo sapiens, UniProt Q16720) | cross-linking MS | – | with: DSSO | – | cross-linked residues | K231 to K754
B1 (fbf-2 121-632 I480A) | gld-3 850-900 (Caenorhabditis elegans, UniProt Q95ZK7) | LacZ luminescence, yeast two-hybrid | – | – | baseline: wild-type FBF-2, higher = lower activity | LacZ activity decrease | 120 fold
STXBP3 (Homo sapiens, UniProt O00186) | ALB (Homo sapiens, UniProt P02768) | cross-linking MS | – | with: DSSO | – | cross-linked residues | K19 to K499
LGQSMDESGLPQLTSYDCEVNAPIQGSRNLLQGEELLRALDQVN (HIF1A CTAD (Homo sapiens, UniProt Q16665)) | EP300 CH1 (Homo sapiens) | FP competition | peptide | – | – | IC50 | 830 nM
FGA (Homo sapiens, UniProt P02671) | WDR17 (Homo sapiens, UniProt Q8IZU2) | cross-linking MS | – | with: DSSO | – | cross-linked residues | K243 to K206
B2 (CCL14 28-93) | CCR1 (Homo sapiens, UniProt P32246) | competition with ligand, radioligand binding | – | with: 125I-CCL3 50 pM | – | IC50 | 2.6 nM
B3 (PduA 2-94) | PduK (Salmonella enterica, UniProt Q9XDN6) | cross-linking | – | – | – | binding | binds
DYNC1H1 (Homo sapiens, UniProt Q14204) | NUMA1 1-705 (Homo sapiens, UniProt Q14980) | time-lapse imaging | Flp-In T-REx mitotic | CDK1 inhibition, with: RO3306 | – | cortical dynein loss half-time | 13.7 min
CYB5R4 (Homo sapiens, UniProt Q7L1T6) | NGB (Homo sapiens, UniProt Q9NPG2) | NO dioxygenation | – | 750 nM, 37 °C, wild type, with: NADH 200 µM | – | time | 150 s
DYNLRB1/DYNLL1/DYNLT1/DYNC1LI2/DYNC1I2/DYNC1H1 dynein-1 complex (Homo sapiens) | BICD2/NINL chimera BicD2 CC, NINL LIC-BD 1-98, HaloTag, JF646 label | pull-down | – | – | – | Ka | > 1.6e+06 M⁻¹
pegfilgrastim, PEGylated, about 39 kDa (Homo sapiens, UniProt P09919-2) | CSF3R (Homo sapiens, UniProt Q99062) | STAT3-driven luciferase reporter induction, agonist | 293-CSF3R | 1.5 h, 50 °C, heat-degraded sample, diluted in DMEM | – | EC50 | 0.00179 µg/mL
Peginesatide | UT7/EPO | RT-qPCR, item: EGR2 | – | concentration not given, 90 min, normalized to HPRT1 | baseline: vehicle | mRNA level | 6.9 fold

For quick reference, copied from above:
Substance | tested on | assay | system | setting | scale | quantity | result
trastuzumab-MMAE ADC IgG1 | FCGR3A (Homo sapiens, UniProt P08637) | BLI | – | ADC | baseline: unconjugated Trastuzumab, higher = weaker binding | KD fold increase | 2 fold
